Published values pooled from the literature.
Protocols differ between the studies behind these lines. ± gives the spread as reported.
Organism: Trypanosoma brucei rhodesiense

SMILES	test	system	setting	quantity	result
N=C(N)c1ccc(-c2cncc(-c3ccc(C(=N)N)nc3)n2)cn1		STIB900, mouse, acute infection	intraperitoneal, 5 mg/kg daily, 4 days, parasite-free survival 60 days	cured mice	25%
O=C1CSC(=S)N1/N=C/c1cn(Cc2ccccc2)c2ccc([N+](=O)[O-])cc12		trypomastigotes, IL1501		IC50	> 60 µM
N=C(N)c1ccc(-c2ccc(-c3ccc(C(=N)N)o3)o2)cc1		STIB900, mouse acute infection model	intraperitoneal, 20 mg/kg for 4 days, parasite-free survival 60 days	cured mice	50%
CO/N=C(\N)c1ccc(-c2cncc(-c3ccc(/C(N)=N\OC)cc3)n2)nc1		STIB900, mouse, acute infection	oral, 25 mg/kg daily, 4 days, parasite-free survival 60 days	cured mice	75%
O=C(Cn1cnc([N+](=O)[O-])n1)Nc1ccc(-c2ccc(Cl)cc2)cc1	parasite growth	STIB900 trypomastigotes		IC50	0.5 to 6 µM
O=C1NC(=S)S/C1=C\c1cn(Cc2ccc(F)cc2)c2ccc([N+](=O)[O-])cc12		trypomastigotes, IL1501		IC50	> 63 µM
N=C(N)c1ccc(-c2cncc(-c3ccc(C(=N)N)nc3)n2)cc1		STIB900, mouse, acute infection	intraperitoneal, 5 mg/kg daily, 4 days, parasite-free survival 60 days	cured mice	50%
O=[N+]([O-])c1ncn(CCCN2CCN(Cc3ccc(Cl)c(Cl)c3)CC2)n1	growth	STIB900 bloodstream trypomastigotes		IC50	0.5 to 6 µM
O=[N+]([O-])c1ncn(CCCNc2ccnc3cccnc23)n1	growth	STIB900	bloodstream trypomastigotes	IC50	0.5 to 6 µM
O=Cc1c[nH]c2ccc([N+](=O)[O-])cc12		trypomastigotes, IL1501		IC50	> 131 µM
N=C(N)c1ccc(-c2ccc(-c3ccc(C(=N)N)o3)o2)cn1		STIB900, mice, acute infection model	intraperitoneal, 5 mg/kg for 4 days, parasite-free at 60 days	cured mice	0%
O=C1CSC(=S)N1/N=C/c1cn(Cc2ccc(F)cc2)c2ccc([N+](=O)[O-])cc12		trypomastigotes, IL1501		IC50	58.1 ± 3.84 µM
N=C(N)c1ccc(-c2ccc(-c3ccc(C(=N)N)s3)s2)cc1		STIB900, mice, acute infection model	intraperitoneal, 5 mg/kg for 4 days, parasite-free at 60 days	cured mice	0%
O=C1CSC(=S)N1/N=C/c1cn(Cc2cccc(Cl)c2)c2ccc([N+](=O)[O-])cc12		trypomastigotes, IL1501		IC50	> 56 µM
N=C(N)c1ccc(-c2ccc(-c3ccc(C(=N)N)s3)o2)cc1		STIB900, mice, acute infection model	intraperitoneal, 5 mg/kg for 4 days, parasite-free at 60 days	cured mice	0%
N=C(N)c1ccc(-c2cncc(-c3ccc(C(=N)N)cn3)n2)cc1		STIB900, mouse, acute infection	intraperitoneal, 5 mg/kg daily, 4 days, parasite-free survival 60 days	cured mice	100%
